Measured values collected from several papers.
Parts stem from different laboratories: compare values within a part only. “And” joins repeats or separate records; there may be more than shown.
Chain of UniProt P45984 (whole entry, looked up): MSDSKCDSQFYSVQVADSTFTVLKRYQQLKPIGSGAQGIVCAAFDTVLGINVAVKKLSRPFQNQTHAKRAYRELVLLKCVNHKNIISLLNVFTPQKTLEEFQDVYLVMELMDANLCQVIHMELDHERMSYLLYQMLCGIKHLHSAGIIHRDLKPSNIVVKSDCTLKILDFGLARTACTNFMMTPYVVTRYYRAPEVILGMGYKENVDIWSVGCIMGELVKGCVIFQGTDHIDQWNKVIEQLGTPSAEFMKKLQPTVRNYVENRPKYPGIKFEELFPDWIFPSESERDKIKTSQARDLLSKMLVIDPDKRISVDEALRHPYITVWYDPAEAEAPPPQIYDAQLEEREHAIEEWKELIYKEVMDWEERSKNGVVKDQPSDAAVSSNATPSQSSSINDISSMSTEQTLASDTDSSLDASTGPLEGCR
Chain of UniProt P35626 (whole entry, looked up): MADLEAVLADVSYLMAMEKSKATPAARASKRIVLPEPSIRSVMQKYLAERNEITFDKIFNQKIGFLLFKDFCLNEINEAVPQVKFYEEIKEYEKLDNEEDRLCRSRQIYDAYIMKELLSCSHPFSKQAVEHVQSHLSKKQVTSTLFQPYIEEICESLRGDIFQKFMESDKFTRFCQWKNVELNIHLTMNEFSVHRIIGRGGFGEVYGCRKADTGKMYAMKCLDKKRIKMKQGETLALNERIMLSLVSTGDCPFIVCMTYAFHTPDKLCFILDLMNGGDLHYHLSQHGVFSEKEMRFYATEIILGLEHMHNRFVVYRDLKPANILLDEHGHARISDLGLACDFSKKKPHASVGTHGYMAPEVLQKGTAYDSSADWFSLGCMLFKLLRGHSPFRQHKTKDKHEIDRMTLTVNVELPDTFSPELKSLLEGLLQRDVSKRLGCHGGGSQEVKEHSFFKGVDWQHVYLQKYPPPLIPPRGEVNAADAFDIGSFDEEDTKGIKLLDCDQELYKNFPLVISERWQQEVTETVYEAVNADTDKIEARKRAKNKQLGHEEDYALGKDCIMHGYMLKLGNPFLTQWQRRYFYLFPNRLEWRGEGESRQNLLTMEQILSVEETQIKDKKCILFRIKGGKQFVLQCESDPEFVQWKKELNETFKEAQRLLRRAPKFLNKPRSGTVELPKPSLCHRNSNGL
Chain of UniProt Q9UIK4 (whole entry, looked up): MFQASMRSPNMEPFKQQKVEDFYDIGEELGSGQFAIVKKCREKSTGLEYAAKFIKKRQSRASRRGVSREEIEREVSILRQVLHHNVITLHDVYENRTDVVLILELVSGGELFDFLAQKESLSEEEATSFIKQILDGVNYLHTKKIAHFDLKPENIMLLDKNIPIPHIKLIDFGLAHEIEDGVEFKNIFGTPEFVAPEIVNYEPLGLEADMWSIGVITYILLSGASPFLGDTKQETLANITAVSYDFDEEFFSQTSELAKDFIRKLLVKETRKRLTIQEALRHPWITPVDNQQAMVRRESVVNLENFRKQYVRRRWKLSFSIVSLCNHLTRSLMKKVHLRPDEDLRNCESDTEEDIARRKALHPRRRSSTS
Chain of UniProt P51955 (whole entry, looked up): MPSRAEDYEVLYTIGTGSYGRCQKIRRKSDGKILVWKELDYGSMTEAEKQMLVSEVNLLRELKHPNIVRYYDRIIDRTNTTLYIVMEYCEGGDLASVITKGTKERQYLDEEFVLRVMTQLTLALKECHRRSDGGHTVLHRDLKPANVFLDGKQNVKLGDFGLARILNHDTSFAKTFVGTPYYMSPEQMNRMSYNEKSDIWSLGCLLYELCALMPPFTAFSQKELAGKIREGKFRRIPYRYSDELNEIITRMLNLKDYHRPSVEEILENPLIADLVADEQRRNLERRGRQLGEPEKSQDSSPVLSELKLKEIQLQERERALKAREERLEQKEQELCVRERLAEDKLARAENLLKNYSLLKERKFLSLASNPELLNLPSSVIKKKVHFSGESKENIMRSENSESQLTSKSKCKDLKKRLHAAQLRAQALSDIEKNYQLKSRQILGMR
Chain of UniProt Q13976 (whole entry, looked up): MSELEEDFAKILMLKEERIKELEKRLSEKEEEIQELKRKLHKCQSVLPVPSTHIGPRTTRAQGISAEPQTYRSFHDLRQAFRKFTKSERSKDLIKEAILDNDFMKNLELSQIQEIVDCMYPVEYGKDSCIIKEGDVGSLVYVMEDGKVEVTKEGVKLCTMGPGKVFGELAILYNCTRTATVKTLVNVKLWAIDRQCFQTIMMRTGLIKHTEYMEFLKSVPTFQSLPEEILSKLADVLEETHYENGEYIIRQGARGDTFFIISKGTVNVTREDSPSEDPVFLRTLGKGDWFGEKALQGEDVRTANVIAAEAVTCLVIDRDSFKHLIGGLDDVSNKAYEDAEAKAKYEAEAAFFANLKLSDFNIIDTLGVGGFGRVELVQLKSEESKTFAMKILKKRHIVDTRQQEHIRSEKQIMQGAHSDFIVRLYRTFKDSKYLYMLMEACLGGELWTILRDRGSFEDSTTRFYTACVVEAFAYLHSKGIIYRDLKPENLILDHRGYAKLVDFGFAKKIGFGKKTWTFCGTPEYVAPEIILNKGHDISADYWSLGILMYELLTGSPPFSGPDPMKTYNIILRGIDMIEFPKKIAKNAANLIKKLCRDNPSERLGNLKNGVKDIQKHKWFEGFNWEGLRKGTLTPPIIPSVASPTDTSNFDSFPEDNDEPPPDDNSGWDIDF
Chain of UniProt Q9NYL2 (whole entry, looked up): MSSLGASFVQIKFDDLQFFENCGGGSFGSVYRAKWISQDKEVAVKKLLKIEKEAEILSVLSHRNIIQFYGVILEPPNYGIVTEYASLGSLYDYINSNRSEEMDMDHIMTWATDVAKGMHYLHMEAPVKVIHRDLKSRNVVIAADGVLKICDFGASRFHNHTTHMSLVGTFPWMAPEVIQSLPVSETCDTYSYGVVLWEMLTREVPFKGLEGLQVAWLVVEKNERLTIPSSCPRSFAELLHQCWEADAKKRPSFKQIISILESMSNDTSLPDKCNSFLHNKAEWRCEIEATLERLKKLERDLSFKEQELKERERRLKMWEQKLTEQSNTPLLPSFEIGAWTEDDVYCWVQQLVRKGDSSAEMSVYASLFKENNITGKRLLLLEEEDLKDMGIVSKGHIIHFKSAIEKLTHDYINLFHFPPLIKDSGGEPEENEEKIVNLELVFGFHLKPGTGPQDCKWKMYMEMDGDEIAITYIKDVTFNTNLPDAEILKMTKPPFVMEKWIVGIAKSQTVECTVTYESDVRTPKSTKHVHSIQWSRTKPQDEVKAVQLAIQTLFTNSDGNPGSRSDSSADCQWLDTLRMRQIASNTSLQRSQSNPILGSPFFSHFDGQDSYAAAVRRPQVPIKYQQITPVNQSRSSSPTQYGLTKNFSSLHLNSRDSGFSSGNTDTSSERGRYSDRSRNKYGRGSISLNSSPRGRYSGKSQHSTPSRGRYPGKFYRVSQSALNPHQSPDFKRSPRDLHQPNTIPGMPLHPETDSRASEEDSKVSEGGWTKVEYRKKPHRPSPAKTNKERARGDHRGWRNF
Chain of UniProt Q9BQI3 (whole entry, looked up): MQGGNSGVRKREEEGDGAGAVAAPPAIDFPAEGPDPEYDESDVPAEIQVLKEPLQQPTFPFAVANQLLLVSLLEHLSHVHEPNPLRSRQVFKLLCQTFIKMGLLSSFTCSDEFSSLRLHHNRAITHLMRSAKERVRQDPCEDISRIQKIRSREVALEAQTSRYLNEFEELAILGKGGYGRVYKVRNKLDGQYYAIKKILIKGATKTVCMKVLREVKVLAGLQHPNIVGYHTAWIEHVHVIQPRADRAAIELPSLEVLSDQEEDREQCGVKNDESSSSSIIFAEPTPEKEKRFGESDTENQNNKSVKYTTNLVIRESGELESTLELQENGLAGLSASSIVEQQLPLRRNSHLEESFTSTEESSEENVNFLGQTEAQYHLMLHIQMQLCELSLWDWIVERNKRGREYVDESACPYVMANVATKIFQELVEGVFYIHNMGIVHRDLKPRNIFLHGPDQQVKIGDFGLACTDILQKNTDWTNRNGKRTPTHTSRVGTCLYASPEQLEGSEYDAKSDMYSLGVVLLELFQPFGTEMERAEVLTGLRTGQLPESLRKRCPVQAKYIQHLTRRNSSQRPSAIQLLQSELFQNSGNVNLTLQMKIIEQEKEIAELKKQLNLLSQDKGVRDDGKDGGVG
Chain of UniProt O95747 (whole entry, looked up): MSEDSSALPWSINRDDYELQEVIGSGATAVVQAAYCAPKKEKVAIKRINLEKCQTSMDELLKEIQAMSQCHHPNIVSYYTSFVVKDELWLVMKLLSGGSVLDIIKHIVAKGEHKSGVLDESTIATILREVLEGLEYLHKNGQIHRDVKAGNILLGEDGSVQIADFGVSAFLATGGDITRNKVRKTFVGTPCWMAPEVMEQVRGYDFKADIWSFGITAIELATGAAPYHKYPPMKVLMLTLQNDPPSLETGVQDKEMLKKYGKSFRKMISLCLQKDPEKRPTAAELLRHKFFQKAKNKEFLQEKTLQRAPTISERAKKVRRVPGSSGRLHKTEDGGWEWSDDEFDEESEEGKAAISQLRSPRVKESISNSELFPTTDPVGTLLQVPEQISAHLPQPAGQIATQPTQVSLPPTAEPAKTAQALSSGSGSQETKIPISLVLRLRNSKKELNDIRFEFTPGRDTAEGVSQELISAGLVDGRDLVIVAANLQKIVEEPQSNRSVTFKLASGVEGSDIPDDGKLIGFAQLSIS
Chain of UniProt Q8IU85 (whole entry, looked up): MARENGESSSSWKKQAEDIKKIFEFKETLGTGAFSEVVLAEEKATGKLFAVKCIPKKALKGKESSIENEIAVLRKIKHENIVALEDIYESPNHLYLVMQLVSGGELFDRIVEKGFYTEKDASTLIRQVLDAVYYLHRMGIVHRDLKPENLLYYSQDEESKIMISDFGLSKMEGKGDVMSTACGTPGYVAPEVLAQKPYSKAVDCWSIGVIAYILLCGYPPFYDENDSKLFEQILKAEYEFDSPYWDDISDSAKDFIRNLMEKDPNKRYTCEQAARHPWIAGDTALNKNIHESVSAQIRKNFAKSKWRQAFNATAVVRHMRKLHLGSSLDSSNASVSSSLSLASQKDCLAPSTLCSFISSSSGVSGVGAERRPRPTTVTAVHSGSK

Series 1
Structure (SMILES): CC(C)n1cnc(-c2ccc(F)cc2)c1-c1ncc(C(=O)Nc2ccc(N3CCN(C)CC3)cc2)[nH]1
phase 2a trial; idiopathic pulmonary fibrosis patients; oral, 30 mg once daily, GLDH increased, grade 3 — “patients with TEAE”: 0%.
It gave 0% for “patients with TEAE” (phase 2a trial; patients with idiopathic pulmonary fibrosis; 60 mg once daily, endocrine disorders SOC, grade 5).
It gave 0% for “patients with TEAE” (refers to: glutamate dehydrogenase increased; idiopathic pulmonary fibrosis patients; 60 mg once daily).
phase 2a trial; idiopathic pulmonary fibrosis patients; oral, 60 mg once daily, blood/lymphatic disorders, grade 1 — “patients with TEAE”: 3%.
It gave 0% for “patients with TEAE” (phase 2a trial; patients with idiopathic pulmonary fibrosis; 60 mg once daily, skin papilloma, maximum intensity grade 2).
It gave 0% for “patients with TEAE” (refers to: CA19-9 increased; idiopathic pulmonary fibrosis patients; 60 mg once daily).
phase 2a trial; idiopathic pulmonary fibrosis patients; oral, 30 mg once daily, urine red cells, grade 1 — “patients with TEAE”: 0%.
The “patients with TEAE” was 0% (phase 2a trial; idiopathic pulmonary fibrosis patients; oral, dose not given, GLDH increased, grade 1, all arms).
It gave 0% for “patients with TEAE” (phase 2a trial; idiopathic pulmonary fibrosis patients; oral, dose not given, LDL increased, grade 5, all arms).
It gave 0% for “patients with TEAE” (phase 2a trial; patients with idiopathic pulmonary fibrosis; dose not given, renal and urinary disorders SOC, grade 4, all arms).

Series 2
SMILES: COc1cc(C(=O)OCCCN2CCCN(CCCOC(=O)c3cc(OC)c(OC)c(OC)c3)CC2)cc(OC)c1OC
It gave 80% and 70% and 90% for “paw withdrawal frequency” (von Frey, 0.4 g filament; mouse, CFA inflammatory pain; intravenous, dose not given, 1 h post-dose, second injection, day 3).
The “paw withdrawal frequency” was 10% and 20% and 0% (von Frey, 0.4 g filament; mouse, CFA inflammatory pain; intravenous, baseline before CFA).
For von Frey, 0.4 g filament; mouse, CFA inflammatory pain; subcutaneous, 10 mg/kg, 24 h post-dose, second injection, day 3: “paw withdrawal frequency” read 90% and 70% and 80% and 60%.
von Frey, 0.4 g filament; mouse, CFA inflammatory pain; intravenous, dose not given, 5 h post-dose, first injection, day 1 — “paw withdrawal frequency”: 80% and 90% and 70%.
The “paw withdrawal frequency” was 0.32 fraction of stimuli and 0.04 fraction of stimuli and 0.15 fraction of stimuli and 0.17 fraction of stimuli (von Frey test; mouse, STZ diabetic neuropathy; subcutaneous, 30 mg/kg, second of three doses, 5 h).
For von Frey, 0.4 g filament; mouse, CFA inflammatory pain; subcutaneous, 10 mg/kg, 1 h post-dose, second injection, day 3: “paw withdrawal frequency” read 90% and 80% and 60% and 70%.
The “paw withdrawal frequency” was 80% and 90% and 70% (von Frey, 0.4 g filament; mouse, CFA inflammatory pain; intravenous, dose not given, 3 h post-dose, third injection, day 5).
For von Frey, 0.4 g filament; mouse, CFA inflammatory pain; intravenous, dose not given, 5 h post-dose, third injection, day 5: “paw withdrawal frequency” read 80% and 100% and 90%.
It gave 80% and 90% and 60% and 70% for “paw withdrawal frequency” (von Frey, 0.4 g filament; mouse, CFA inflammatory pain; subcutaneous, 10 mg/kg, 1 h post-dose, third injection, day 5).
von Frey, 0.4 g filament; mouse, CFA inflammatory pain; subcutaneous, 10 mg/kg, 24 h post-dose, first injection, day 1 — “paw withdrawal frequency”: 80% and 60% and 70% and 90%.
It gave 0.29 fraction of stimuli and 0.51 fraction of stimuli and 0.13 fraction of stimuli and 0.15 fraction of stimuli and 0.12 fraction of stimuli for “paw withdrawal frequency” (von Frey test; mouse, STZ diabetic neuropathy; subcutaneous, 30 mg/kg, second of three doses, 1 h).

Series 3 — Compound: O=C(Nc1ccc(Cl)cc1)c1ccccc1NCc1ccncc1; read-out: enzyme activity; mode: inhibitor; tested at: 0.5 µM; reference: control
For Serine/threonine-protein kinase Chk2 (CHEK2, Homo sapiens, UniProt O96017): remaining activity read 94.5%.
It gave 81.8% for remaining activity (Serine/threonine-protein kinase 10 (STK10, Homo sapiens, UniProt O94804)).
STE20/SPS1-related proline-alanine-rich protein kinase (STK39, Homo sapiens, UniProt Q9UEW8) — remaining activity: 94.7%.
For cGMP-dependent protein kinase 1, isoform beta (PRKG1, Homo sapiens, UniProt Q13976): remaining activity read 92.3%.
The remaining activity was 98.4% (Death-associated protein kinase 2 (DAPK2, Homo sapiens, UniProt Q9UIK4)).
The remaining activity was 90.1% (TGF-beta receptor type-2 (TGFBR2, Homo sapiens, UniProt P37173)).
Tyrosine-protein kinase Lyn, isoform B (LYN, Homo sapiens, UniProt P07948) — remaining activity: 93.7%.
The remaining activity was 101% (Calcium/calmodulin-dependent protein kinase type II subunit delta (CAMK2D, Homo sapiens, UniProt Q13557)).
Mitogen-activated protein kinase 9 (MAPK9, Homo sapiens, UniProt P45984) — remaining activity: 102%.
The remaining activity was 98.1% (Protein kinase C beta type, isoform beta-I (PRKCB, Homo sapiens, UniProt P05771)).
cAMP-dependent protein kinase catalytic subunit alpha (PRKACA, Homo sapiens, UniProt P17612) — remaining activity: 97.1%.
Cyclin-dependent kinase 5, with p25 (CDK5, Homo sapiens, UniProt Q00535) — remaining activity: 84.9%.
The remaining activity was 96.8% (Serine/threonine-protein kinase OSR1 (OXSR1, Homo sapiens, UniProt O95747)).
For Protein kinase C alpha type (PRKCA, Homo sapiens, UniProt P17252): remaining activity read 96.7%.
The remaining activity was 100% (TGF-beta receptor type-1 (TGFBR1, Homo sapiens, UniProt P36897)).
For Inhibitor of nuclear factor kappa-B kinase subunit epsilon (IKBKE, Homo sapiens, UniProt Q14164): remaining activity read 98.9%.
Inhibitor of nuclear factor kappa-B kinase subunit beta (IKBKB, Homo sapiens, UniProt O14920) — remaining activity: 99.3%.
For Death-associated protein kinase 1 (DAPK1, Homo sapiens, UniProt P53355): remaining activity read 99.9%.
It gave 88.4% for remaining activity (Serine/threonine-protein kinase Nek2 (NEK2, Homo sapiens, UniProt P51955)).
Mitogen-activated protein kinase kinase kinase 3 (MAP3K3, Homo sapiens, UniProt Q99759) — remaining activity: 96.2%.
For G protein-coupled receptor kinase 3 (GRK3, Homo sapiens, UniProt P35626): remaining activity read 96.1%.
It gave 93.9% for remaining activity (Calcium/calmodulin-dependent protein kinase kinase 2 (CAMKK2, Homo sapiens, UniProt Q96RR4)).

Series 4 — read-out: cell-free assay; technique: competition with immobilised ligand; tested at: 1 µM
Structure (SMILES): CNC(=O)Nc1ccc2c(c1)CC[C@@]21OC(=O)N(CC(=O)N(Cc2ccc(F)cc2)[C@@H](C)C(F)(F)F)C1=O
It gave 74% for remaining binding (Tyrosine-protein kinase ABL1, phosphorylated (ABL1, Homo sapiens, UniProt P00519, H396P)).
For Myosin light chain kinase (MYLK3, Homo sapiens, UniProt Q32MK0): remaining binding read 90%.
The remaining binding was 92% (eIF-2-alpha kinase GCN2, C-terminal kinase domain (EIF2AK4, Homo sapiens, UniProt Q9P2K8, S808G)).
For Ephrin type-A receptor 4 (EPHA4, Homo sapiens, UniProt P54764): remaining binding read 89%.
The remaining binding was 82% (Rhodopsin kinase GRK1 (GRK1, Homo sapiens, UniProt Q15835)).
For Leucine-rich repeat serine/threonine-protein kinase 2 (LRRK2, Homo sapiens, UniProt Q5S007): remaining binding read 79%.
Muscle, skeletal receptor tyrosine-protein kinase (MUSK, Homo sapiens, UniProt O15146) — remaining binding: 91%.
Tyrosine-protein kinase ABL1, phosphorylated (ABL1, Homo sapiens, UniProt P00519, E255K) — remaining binding: 75%.
The remaining binding was 94% (Calcium/calmodulin-dependent protein kinase type 1D (CAMK1D, Homo sapiens, UniProt Q8IU85)).
It gave 73% for remaining binding (Dual specificity testis-specific protein kinase 1 (TESK1, Homo sapiens, UniProt Q15569)).
For Eukaryotic translation initiation factor 2-alpha kinase 1 (EIF2AK1, Homo sapiens, UniProt Q9BQI3): remaining binding read 80%.
It gave 81% for remaining binding (Insulin receptor (INSR, Homo sapiens, UniProt P06213)).
For Tyrosine-protein kinase FRK (FRK, Homo sapiens, UniProt P42685): remaining binding read 94%.
The remaining binding was 82% (Mitogen-activated protein kinase kinase kinase 20 (MAP3K20, Homo sapiens, UniProt Q9NYL2)).
Serine/threonine-protein kinase 32B (STK32B, Homo sapiens, UniProt Q9NY57) — remaining binding: 90%.

Excerpt of the above (series 4):
The remaining binding was 92% (eIF-2-alpha kinase GCN2, C-terminal kinase domain (EIF2AK4, Homo sapiens, UniProt Q9P2K8, S808G)).
For Ephrin type-A receptor 4 (EPHA4, Homo sapiens, UniProt P54764): remaining binding read 89%.
The remaining binding was 82% (Rhodopsin kinase GRK1 (GRK1, Homo sapiens, UniProt Q15835)).
For Leucine-rich repeat serine/threonine-protein kinase 2 (LRRK2, Homo sapiens, UniProt Q5S007): remaining binding read 79%.
Muscle, skeletal receptor tyrosine-protein kinase (MUSK, Homo sapiens, UniProt O15146) — remaining binding: 91%.
Tyrosine-protein kinase ABL1, phosphorylated (ABL1, Homo sapiens, UniProt P00519, E255K) — remaining binding: 75%.
The remaining binding was 94% (Calcium/calmodulin-dependent protein kinase type 1D (CAMK1D, Homo sapiens, UniProt Q8IU85)).
